Assay results gathered from unrelated publications.
Each line is one published result; not all experiments were run side by side. ± gives the spread as reported.
SLC6A3: Sodium-dependent dopamine transporter (SLC6A3, Homo sapiens, UniProt Q01959)
Chain of UniProt Q01959 (whole entry, looked up): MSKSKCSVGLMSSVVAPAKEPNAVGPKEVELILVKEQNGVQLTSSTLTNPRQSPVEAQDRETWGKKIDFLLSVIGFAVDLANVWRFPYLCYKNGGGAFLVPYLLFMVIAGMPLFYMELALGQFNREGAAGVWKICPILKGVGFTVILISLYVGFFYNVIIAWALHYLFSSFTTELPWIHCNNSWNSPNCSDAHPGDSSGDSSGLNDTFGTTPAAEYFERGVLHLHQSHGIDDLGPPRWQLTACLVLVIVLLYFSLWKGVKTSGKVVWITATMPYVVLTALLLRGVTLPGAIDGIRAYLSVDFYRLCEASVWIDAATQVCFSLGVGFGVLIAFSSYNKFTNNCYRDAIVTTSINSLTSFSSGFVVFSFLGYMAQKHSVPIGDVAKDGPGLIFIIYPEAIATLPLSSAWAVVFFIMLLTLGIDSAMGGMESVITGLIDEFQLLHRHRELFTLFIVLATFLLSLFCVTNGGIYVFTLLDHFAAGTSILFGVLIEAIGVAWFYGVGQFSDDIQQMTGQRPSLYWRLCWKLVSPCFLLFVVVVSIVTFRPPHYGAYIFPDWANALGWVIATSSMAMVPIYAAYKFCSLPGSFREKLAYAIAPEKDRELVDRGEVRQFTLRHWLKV
KCNA2/KCNA1: KCNA2/KCNA1 (Homo sapiens, UniProt P16389+Q09470)
Chain of UniProt P16389 (whole entry, looked up): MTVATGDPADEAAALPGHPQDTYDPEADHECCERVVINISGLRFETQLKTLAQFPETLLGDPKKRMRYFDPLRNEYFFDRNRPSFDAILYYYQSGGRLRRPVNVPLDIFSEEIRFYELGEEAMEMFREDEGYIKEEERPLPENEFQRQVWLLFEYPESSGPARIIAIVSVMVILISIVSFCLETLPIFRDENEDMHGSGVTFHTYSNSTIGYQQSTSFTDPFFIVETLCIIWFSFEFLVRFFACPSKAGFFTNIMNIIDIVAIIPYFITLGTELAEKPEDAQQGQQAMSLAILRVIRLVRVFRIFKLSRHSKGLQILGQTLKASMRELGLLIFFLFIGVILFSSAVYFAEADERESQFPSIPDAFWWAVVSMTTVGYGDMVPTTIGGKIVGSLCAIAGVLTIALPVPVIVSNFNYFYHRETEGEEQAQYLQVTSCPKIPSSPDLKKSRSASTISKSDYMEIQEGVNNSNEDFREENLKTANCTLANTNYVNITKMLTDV
Chain of UniProt Q09470 (whole entry, looked up): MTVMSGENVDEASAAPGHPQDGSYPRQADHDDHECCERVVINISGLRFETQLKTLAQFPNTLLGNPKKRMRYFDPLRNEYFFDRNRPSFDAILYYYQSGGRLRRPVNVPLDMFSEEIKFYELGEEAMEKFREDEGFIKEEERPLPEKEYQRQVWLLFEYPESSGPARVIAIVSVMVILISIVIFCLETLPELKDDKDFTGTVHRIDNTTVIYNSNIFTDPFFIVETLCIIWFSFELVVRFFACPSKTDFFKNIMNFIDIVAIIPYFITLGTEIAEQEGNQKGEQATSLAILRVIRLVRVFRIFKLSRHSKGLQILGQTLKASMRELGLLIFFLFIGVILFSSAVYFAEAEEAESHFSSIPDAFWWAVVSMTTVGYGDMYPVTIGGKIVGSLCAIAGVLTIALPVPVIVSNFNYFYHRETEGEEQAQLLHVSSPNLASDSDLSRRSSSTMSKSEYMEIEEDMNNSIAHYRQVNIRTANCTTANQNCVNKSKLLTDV
Faah: Fatty-acid amide hydrolase 1 (Faah, Rattus norvegicus, UniProt P97612)
Chain of UniProt P97612 (whole entry, looked up): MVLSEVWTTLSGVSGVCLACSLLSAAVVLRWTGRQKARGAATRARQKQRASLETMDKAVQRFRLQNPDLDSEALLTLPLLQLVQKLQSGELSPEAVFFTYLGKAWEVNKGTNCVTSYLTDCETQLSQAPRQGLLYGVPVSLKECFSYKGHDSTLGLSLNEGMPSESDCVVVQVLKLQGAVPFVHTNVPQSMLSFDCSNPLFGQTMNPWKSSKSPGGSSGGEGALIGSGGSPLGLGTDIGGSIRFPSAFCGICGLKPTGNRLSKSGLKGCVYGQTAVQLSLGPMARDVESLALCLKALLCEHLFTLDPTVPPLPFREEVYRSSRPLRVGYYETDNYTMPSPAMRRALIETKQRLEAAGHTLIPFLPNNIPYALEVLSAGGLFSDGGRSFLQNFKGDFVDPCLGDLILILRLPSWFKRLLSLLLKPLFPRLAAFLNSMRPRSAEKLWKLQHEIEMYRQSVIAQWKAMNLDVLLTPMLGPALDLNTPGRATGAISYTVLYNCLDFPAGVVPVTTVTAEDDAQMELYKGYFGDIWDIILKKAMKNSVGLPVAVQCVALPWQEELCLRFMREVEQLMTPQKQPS
RET: Proto-oncogene tyrosine-protein kinase receptor Ret (RET, Homo sapiens, UniProt P07949)
Chain of UniProt P07949 (whole entry, looked up): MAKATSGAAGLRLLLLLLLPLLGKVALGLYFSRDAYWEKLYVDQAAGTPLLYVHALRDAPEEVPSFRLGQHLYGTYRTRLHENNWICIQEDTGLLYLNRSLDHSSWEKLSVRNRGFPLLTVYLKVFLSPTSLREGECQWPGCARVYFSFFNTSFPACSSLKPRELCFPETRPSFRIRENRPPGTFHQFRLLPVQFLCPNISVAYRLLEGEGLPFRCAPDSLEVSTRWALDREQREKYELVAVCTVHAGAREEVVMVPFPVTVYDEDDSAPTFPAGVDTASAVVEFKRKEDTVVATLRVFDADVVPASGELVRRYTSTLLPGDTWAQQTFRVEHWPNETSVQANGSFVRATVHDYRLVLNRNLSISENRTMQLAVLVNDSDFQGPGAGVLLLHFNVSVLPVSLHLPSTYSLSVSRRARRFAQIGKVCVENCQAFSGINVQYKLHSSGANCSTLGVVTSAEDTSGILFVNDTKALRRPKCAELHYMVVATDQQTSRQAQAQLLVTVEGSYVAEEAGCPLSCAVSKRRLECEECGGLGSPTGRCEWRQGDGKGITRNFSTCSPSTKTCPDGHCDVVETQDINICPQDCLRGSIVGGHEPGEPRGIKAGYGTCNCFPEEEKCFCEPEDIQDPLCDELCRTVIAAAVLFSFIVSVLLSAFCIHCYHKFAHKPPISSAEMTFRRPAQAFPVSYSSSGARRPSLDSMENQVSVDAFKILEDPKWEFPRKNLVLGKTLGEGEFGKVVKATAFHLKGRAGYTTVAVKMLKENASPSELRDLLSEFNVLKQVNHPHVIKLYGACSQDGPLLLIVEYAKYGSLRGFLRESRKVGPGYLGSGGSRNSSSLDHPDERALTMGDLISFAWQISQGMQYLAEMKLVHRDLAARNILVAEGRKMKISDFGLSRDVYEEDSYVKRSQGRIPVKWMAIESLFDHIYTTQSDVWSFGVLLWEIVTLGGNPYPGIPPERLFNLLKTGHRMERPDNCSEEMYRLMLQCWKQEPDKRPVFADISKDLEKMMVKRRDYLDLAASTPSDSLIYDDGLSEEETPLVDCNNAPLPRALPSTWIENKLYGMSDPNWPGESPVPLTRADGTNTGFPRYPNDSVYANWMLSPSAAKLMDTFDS
GRPR: Gastrin-releasing peptide receptor (GRPR, Homo sapiens, UniProt P30550)
Chain of UniProt P30550 (whole entry, looked up): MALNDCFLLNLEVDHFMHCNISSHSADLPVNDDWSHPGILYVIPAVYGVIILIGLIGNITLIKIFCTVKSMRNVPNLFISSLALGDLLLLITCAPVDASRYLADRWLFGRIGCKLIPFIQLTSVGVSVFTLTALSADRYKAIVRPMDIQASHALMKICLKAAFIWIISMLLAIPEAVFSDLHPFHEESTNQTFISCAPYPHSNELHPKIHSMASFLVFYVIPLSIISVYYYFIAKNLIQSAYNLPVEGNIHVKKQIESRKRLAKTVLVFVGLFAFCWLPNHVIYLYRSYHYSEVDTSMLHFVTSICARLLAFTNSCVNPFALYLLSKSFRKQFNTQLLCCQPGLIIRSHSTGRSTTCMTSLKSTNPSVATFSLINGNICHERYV
Chain of UniProt Q04828 (whole entry, looked up): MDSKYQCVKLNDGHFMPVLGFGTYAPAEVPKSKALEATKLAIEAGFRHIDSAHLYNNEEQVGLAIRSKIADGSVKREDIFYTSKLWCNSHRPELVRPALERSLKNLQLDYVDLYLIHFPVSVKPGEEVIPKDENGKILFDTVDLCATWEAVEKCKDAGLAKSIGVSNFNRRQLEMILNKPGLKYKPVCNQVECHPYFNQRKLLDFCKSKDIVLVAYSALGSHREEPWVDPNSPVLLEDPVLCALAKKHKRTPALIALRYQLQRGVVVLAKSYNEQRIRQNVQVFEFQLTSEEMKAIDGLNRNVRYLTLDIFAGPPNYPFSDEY
Chain of UniProt Q96HE7 (whole entry, looked up): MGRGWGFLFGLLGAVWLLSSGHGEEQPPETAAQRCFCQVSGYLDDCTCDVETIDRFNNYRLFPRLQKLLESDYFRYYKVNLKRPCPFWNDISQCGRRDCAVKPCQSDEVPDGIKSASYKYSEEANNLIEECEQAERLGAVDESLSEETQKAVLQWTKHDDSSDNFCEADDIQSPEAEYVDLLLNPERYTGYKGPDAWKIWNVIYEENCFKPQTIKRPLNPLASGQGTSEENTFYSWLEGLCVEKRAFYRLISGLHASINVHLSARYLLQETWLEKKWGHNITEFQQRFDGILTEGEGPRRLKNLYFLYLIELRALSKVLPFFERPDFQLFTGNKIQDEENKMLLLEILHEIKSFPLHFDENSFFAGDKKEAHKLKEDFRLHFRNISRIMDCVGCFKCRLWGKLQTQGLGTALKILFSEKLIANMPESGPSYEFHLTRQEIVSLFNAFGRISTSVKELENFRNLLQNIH
Chain of UniProt Q15561 (whole entry, looked up): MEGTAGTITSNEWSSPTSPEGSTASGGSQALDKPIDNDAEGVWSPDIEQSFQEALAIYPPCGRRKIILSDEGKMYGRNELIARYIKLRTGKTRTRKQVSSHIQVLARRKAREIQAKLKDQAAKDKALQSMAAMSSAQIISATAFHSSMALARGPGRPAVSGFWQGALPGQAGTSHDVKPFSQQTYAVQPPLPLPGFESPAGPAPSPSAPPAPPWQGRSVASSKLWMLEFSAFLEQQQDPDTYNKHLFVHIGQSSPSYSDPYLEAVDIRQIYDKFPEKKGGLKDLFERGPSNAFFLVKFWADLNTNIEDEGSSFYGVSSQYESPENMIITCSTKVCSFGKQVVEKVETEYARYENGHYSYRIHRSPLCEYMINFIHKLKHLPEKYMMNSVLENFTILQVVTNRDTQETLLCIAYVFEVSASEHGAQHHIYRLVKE
Chain of UniProt P00383 (whole entry, looked up): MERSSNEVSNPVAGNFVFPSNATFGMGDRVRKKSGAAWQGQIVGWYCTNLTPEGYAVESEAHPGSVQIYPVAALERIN

With `COc1ccccc1OC1=C(Oc2ccccc2OC)C(=O)c2ccccc2C1=O` the IC50 was 1.29 µM (Bromodomain-containing protein 4, BD1 (BRD4, Homo sapiens, UniProt O60885); BD1 acetylated histone peptide binding, inhibitor, AlphaScreen).
The IC50 of `N=C(N)NCCCC(N)C(=O)NCC(=O)NC(CCCNC(=N)NCCCSCC1OC(n2cnc3c(N)ncnc32)C(O)C1O)C(N)=O` (stereo not drawn) is reported as > 100 µM (SETD7 (Homo sapiens, UniProt Q8WTS6); enzyme activity, inhibitor, fluorescence).
The IC50 of `CNCc1c(OCc2ccc(F)cc2)ccc2ccccc12` is reported as 2.56 µM (SLC6A3; transporter uptake, inhibitor, radiometric).
For `O=C1Nc2cc(Cl)ccc2/C1=C\c1c(Cl)cccc1Cl`, the IC50 was 46.7 µM (alpha-amylase; inhibitor; added: starch).
With `OC[C@@]12CCC[C@@H]1CN(c1cc(-c3ccccc3)nc3ccnn13)C2` the IC50 was 0.275 µM (Transcriptional enhancer factor TEF-3, YAP-binding domain (TEAD4, Homo sapiens, UniProt Q15561)).
`CCCCCCCCCCCCCC(=S)NCCCC[C@H](NS(C)(=O)=O)C(=O)N[C@H](C)C(=O)N[C@@H](CCCNC(=N)N)C(N)=O` has an IC50 of 3.7 µM (SIRT1 (Homo sapiens, UniProt Q96EB6); enzyme activity, inhibitor).
`O=c1c(-c2ccccc2)coc2cc(O)c(O)cc12` has an IC50 of 349.6 ± 1.2 µM (PCO4 (Arabidopsis thaliana, UniProt Q9SJI9); enzyme activity, inhibitor, RapidFire Q-TOF MS; added: RAP2 peptide substrate).
`O=C(COc1cc2ccccc2cc1C(=O)NCc1ccccc1)Nc1ccccc1N1CCCC1=O` gave an IC50 of 1.41 µM (KCNA2/KCNA1; potassium current, inhibitor, automated patch clamp; CHO-K1, concatemer expressing).
With `Cc1ccc2c(c1Br)C(O)(CC(=O)c1ccc3c(c1)OCO3)C(=O)N2` (stereo not drawn) the IC50 was > 1000 µM (UAP1 (Homo sapiens, UniProt Q16222); enzyme activity, inhibitor, absorbance).
`Cc1cc2c(NC(=O)N[C@@H]3CC(C)(C)Oc4cc(C(F)(F)F)ccc43)c(C)ccc2cn1` gave an IC50 of 0.02 µM (TRPV1 (Homo sapiens, UniProt Q8NER1); heat-activated current, antagonist; added: heat 48 °C).
`O=S(=O)(Cc1ccccc1)N1C=Cc2ccccc2C1c1c[nH]c2ccccc12` (stereo not drawn) gave an IC50 of ~0.11 µM (RAD51 (Homo sapiens, UniProt Q06609); binding, inhibitor, SPR competition; added: GST-BRC).
`C[C@H](NC(=O)c1cc(S(=O)(=O)N2CCOCC2)ccc1N1CCCCC1)c1cc2ccccc2o1` has an IC50 of 1.62 µM (KCNA2/KCNA1; potassium current, inhibitor, automated patch clamp; CHO-K1, concatemer expressing).
`C[C@]12CC[C@@H]3c4cc(Br)c(O)c(Br)c4CC[C@H]3[C@@H]1CCC2=O` gave an IC50 of 5.4 µM (AKR1C1 (Homo sapiens, UniProt Q04828); enzyme activity, inhibitor, absorbance; pH 9).
`O=C(Oc1ccccc1)N1CCC(CCn2ccc3ccc(F)cc32)CC1` gave an IC50 of 0.023 µM (Faah; enzyme activity, inhibitor).
`c1ccc(CCNc2ncnc3[nH]cnc23)cc1` has an IC50 of 478 µM (Chemotaxis protein CheA (Escherichia coli, UniProt P07363); enzyme activity, inhibitor, radiometric).
The IC50 of `COc1cccc2c(NCc3ccccc3)nc(Nc3cccc(F)c3)nc12` is reported as 0.5 µM (VCP (Homo sapiens, UniProt P55072); enzyme activity, inhibitor).
With `CNC(=O)c1cc(C)ccc1NC(=O)c1ccc(-c2cc(O)ccc2C)c(C)c1` the IC50 was 0.335 µM (EPHA5 (Homo sapiens, UniProt P54756); target engagement in cells, BRET).
`COc1ccc2c(c1)c1c(n2CO)CN2CCc3cc(OC)c(OCc4ccccc4)cc3C2C1` (stereo not drawn) has an IC50 of 1.61 µM (DRD1 (Homo sapiens, UniProt P21728); calcium signal, antagonist).
The IC50 of `NS(=O)(=O)c1ccc(-n2nc(C(F)(F)F)cc2-c2ccc(F)cc2F)cc1` is reported as 50.8 µM (Prostaglandin G/H synthase 1 (Canis lupus familiaris, UniProt Q8HZR1); TXB2 formation, inhibitor; clotting dog whole blood; 1 h, 37 °C).
`CC(=O)c1ccc(-c2nn(C(=O)c3ccncc3)cc2C(=O)O)cc1` gave an IC50 of 165 µg/mL (alpha-amylase; inhibitor).
The IC50 of `N/C(S)=N/N=C/c1ccccn1` is reported as 12.3 µM (SOD1 (Homo sapiens, UniProt P00441); enzyme activity, inhibitor; HeLa; 24 h).
`O=C(OC(C(F)(F)F)C(F)(F)F)N1CCC(CCn2ccc3cnccc32)CC1` has an IC50 of > 10 µM (Faah; enzyme activity, inhibitor).
The IC50 of `CN1CCN(C(=O)CSc2nc(-c3ccc(Cl)cc3)cc(C(F)(F)F)c2C#N)CC1` is reported as 2.5 µM (TAAR1 (Homo sapiens, UniProt Q96RJ0)).
`C#CCCNC(=O)[C@@H](NC(=O)N[C@H](C(=O)N[C@H]1/C=C/CCNC(=O)/C=C/[C@H](C(C)C)NC1=O)C(C)C)C(C)C` has an IC50 of 0.17 µM (Proteasome subunit beta type-9 (Homo sapiens, UniProt P28065); inhibitor; human immunoproteasome, added: Ac-PAL-AMC).
The IC50 of `O=C(NCCCN1CCC(Cc2ccccc2)CC1)c1cc(Cl)cc(Cl)c1` is reported as > 10 µM (SLC6A3; transporter uptake, inhibitor, radiometric).
The IC50 of `O=C[C@H](C[C@H]1CCNC1=O)NC(=O)[C@H](Cc1ccccc1)NC(=O)OCc1ccccc1` is reported as 0.09 ± 0.01 µM (Genome polyprotein, 3C protease (rhinovirus B14, UniProt P03303); 3C protease activity, inhibitor, FRET).
`Cn1cc(-c2nn(C)c3ncnc(N)c23)cn1` has an IC50 of 1.04 µM (RET; enzyme activity, inhibitor).
With `COc1ccccc1-c1ccc(-c2cn(C(=O)N3CCCCC3Cc3ccccc3)nn2)cc1` (stereo not drawn) the IC50 was 0.14 µM (Diacylglycerol lipase-alpha (Mus musculus, UniProt Q6WQJ1); enzyme activity, inhibitor).
`CC(C)C[C@H]1CN[C@H](C(N)=O)CSSC[C@@H](N)C(=O)N[C@@H](CCC(N)=O)C(=O)N[C@@H](Cc2c[nH]c3ccccc23)C(=O)N[C@@H](C)C(=O)N[C@@H](C(C)C)C(=O)N[C@H](C)C(=O)N[C@@H](Cc2c[nH]cn2)C(=O)N1` has an IC50 of > 10 µM (GRPR; inositol phosphate generation, antagonist; HuTu80; added: GRP).
With `CCCC/N=C/C=C(C)/C=C/C=C(C)/C=C/C1=C(C)CCCC1(C)C` the IC50 was ~0.08 µM (CNGA1 (Bos taurus, UniProt Q00194); cGMP-activated current, inhibitor, inside-out patch clamp; Xenopus oocytes; 1 h steady state, +100 mV, added: 2 mM cGMP).
`COC(=O)[C@@H](CS)N1C(=O)c2ccc(N(C)C)cc2C1=O` has an IC50 of 0.18 µM (VIM-2 (Escherichia coli, UniProt Q5U7L7); enzyme activity, inhibitor; pH 7).
The IC50 of `CN(C)CCCNc1c2c(c(C#N)c3nc4ccccc4n13)CCC2` is reported as 9.6 µM (ERO1-like protein alpha (Homo sapiens, UniProt Q96HE7); enzyme activity, inhibitor, fluorescence).
With `O=C(Nc1ccc(C(F)(F)F)nc1)N1CCC(Cc2cccc(Oc3ccc(C(F)(F)F)cn3)c2)CC1` the IC50 was > 10 µM (Faah; enzyme activity, inhibitor; with preincubation).
For `CCOC(=O)c1cc2cc(-c3cc(C(=O)NCc4ccc(C(=O)O)cc4)nn3C)ccc2[nH]1`, the IC50 was 0.0093 µM (Collagenase 3 (MMP13, Homo sapiens, UniProt P45452); enzyme activity, inhibitor).
With `O=C(O)c1ccc(OCCCCCCCCCCOc2ccc(C(=O)O)cc2)cc1` the IC50 was 285 ± 80 µM (Dihydrofolate reductase type 2 (Escherichia coli, UniProt P00383); enzyme activity, inhibitor; pH 7).
For `C[C@H](OP(=O)(O)O)[C@H]1NC(=O)[C@H](CCCNC(=N)N)NC(=O)[C@@H](CCCNC(=N)N)NC(=O)[C@H](Cc2c[nH]c3ccccc23)NC(=O)[C@H](Cc2ccc(F)cc2)NC(=O)[C@H](Cc2ccc3ccccc3c2)NC(=O)[C@@H]2CCCCN2C1=O`, the IC50 was 1.81 ± 0.56 µM (PIN1 (Homo sapiens, UniProt Q13526); fluorescence anisotropy competition; added: FITC-labelled probe).
`CCCC[C@H](NC(=O)[C@H](Cc1ccccc1)NC(=O)[C@H](Cc1c[nH]cn1)NC(=O)CCNC(=O)[C@@H](NC(=O)[C@H](C)NC(=O)[C@H](Cc1c[nH]c2ccccc12)NC(=O)[C@H](CC(N)=O)NC(=O)[C@@H](Cc1ccc(O)cc1)NC(=O)[C@@H](CO)NC(=O)[C@H](CO)NC(=O)[C@H](N)CO)C(C)C)C(N)=O` gave an IC50 of 0.0068 µM (GRPR; ligand displacement in cells, radioligand).
The IC50 of `CC(=O)Oc1cc(-c2coc3cc(OC(C)=O)c(OC(C)=O)c(OC(C)=O)c3c2=O)cc(OC(C)=O)c1OC(C)=O` is reported as 0.82 ± 0.01 µM (Bacillus subtilis RNase P; pre-tRNA cleavage, inhibitor, fluorescence polarization; 1% DMSO, multiple turnover, added: 50 nM fluorescein-pre-tRNA(Asp)).
`Cc1ccc2oc(-c3c4c(N)n[nH]c(=O)c4nn3-c3ccc(NC(=O)/C=C/CN(C)C)cc3)c(C)c2c1` has an IC50 of > 1 µM (RET; enzyme activity, inhibitor, ELISA).
The IC50 of `Cc1cnc(Nc2ccc(C3CCN(C)CC3)c(F)c2)nc1Nc1ccc(Cl)c(NS(=O)(=O)C(C)(C)C)c1` is reported as 0.227 µM (ULK3 (Homo sapiens, UniProt Q6PHR2); enzyme activity, inhibitor).
The IC50 of `O=C(NCCCN1CCC(Cc2ccccc2)CC1)c1ccc2ccccc2n1` is reported as 1.02 to 5.66 µM (SLC6A2 (Homo sapiens, UniProt P23975); transporter uptake, inhibitor, radiometric).
The IC50 of `Cc1ccc(CNC(=O)[C@@H](NC(=O)[C@H](CCc2ccccc2)NC(=O)[C@H](CCc2ccccc2)N(C)Cc2cnccn2)C(C)C)cc1` is reported as 1.97 µM (Proteasome component C5/PSMB5 (Homo sapiens, UniProt P20618+P28074); β5 activity, inhibitor; added: Suc-LLVY-AMC, PA28α-activated).
